Values quoted from earlier work, collected from citations in different studies.
Compare with care: the assays were run in different laboratories. ± marks the error that the study gave.

COc1cc2c(Oc3ccc4[nH]c(C)cc4c3F)ccnc2cc1OCC1(N)CC1  IC50 (CYP3A4; enzyme activity, inhibitor; with: midazolam): 9.56 µM
C=C[C@@H]1C[C@]1(NC(=O)[C@@H]1C[C@@H]2CN1C(=O)[C@H](C(C)(C)C)NC(=O)O[C@@H]1C[C@H]1CCCCCc1nc3ccc(OC)cc3nc1O2)C(=O)NS(=O)(=O)C1CC1  IC50 (P-glycoprotein; digoxin transport, inhibitor): > 100 µM
CC(O)C(C)n1ncn(-c2ccc(N3CCN(c4ccc(OCC5COC(Cn6cncn6)(c6ccc(Cl)cc6Cl)O5)cc4)CC3)cc2)c1=O (stereo not drawn)  IC50 (CYP3A4 human; inhibitor; with: midazolam): 0.0046 µM
C[C@H](Cc1cc2c(c(C(N)=O)c1)N(CCCO)CC2)NCCOc1ccccc1OCC(F)(F)F  IC50 (hERG (human); inhibitor): 8.91 µM
O=C(Oc1ccc(Cl)cc1)N1CCc2c([nH]c3ccc(Cl)cc23)C1c1ccc(O)cc1 (stereo not drawn)  IC50 (BCRP; substrate transport, inhibitor): 1.57 µM
O=C(O)C(F)(F)C(F)(F)C(F)(F)C(F)(F)C(F)(F)F  IC50 (CYP2C9; inhibitor; Tox21 screening): 17.5 ± 4.37 µM
CCN(CC)S(=O)(=O)N/C(=N/C)N1CC(c2cccnc2)C(c2ccc(Cl)cc2)=N1 (stereo not drawn)  Ki (CB2 receptor; binding): 9.08 µM
O[C@H]1CCCN[C@@H]1CCCn1cnc2c(Cl)c(Cl)ccc21  IC50 (CYP2D6; inhibitor): 5.2 µM
FC1(F)C(F)(F)C(F)(F)C2(F)C(F)(C1(F)F)C(F)(F)C(F)(F)C1(F)C(F)(F)C(F)(F)C(F)(F)C(F)(F)C12F (stereo not drawn)  IC50 (CYP1A2; inhibitor; Tox21 screening): inactive
COc1cc([C@@H]2c3cc4c(cc3[C@@H](O[C@@H]3O[C@@H]5CO[C@@H](C)O[C@H]5[C@H](O)[C@H]3O)[C@H]3COC(=O)[C@H]23)OCO4)cc(OC)c1O  IC50 (MRP2; inhibitor): 48 µM
O=C(O)C(F)(F)C(F)(F)C(F)(F)C(F)(F)C(F)(F)C(F)(F)C(F)(F)C(F)(F)F  IC50 (CYP2C9; inhibitor; Tox21 screening): 1.64 ± 0.69 µM
O=c1[nH]ncn1-c1ccc(N2CCN(c3ccc(OCC4COC(Cn5cncn5)(c5ccc(Cl)cc5Cl)O4)cc3)CC2)cc1 (stereo not drawn)  IC50 (CYP3A4 human; inhibitor; with: midazolam): 0.00044 µM

Repeated from above:
O=c1[nH]ncn1-c1ccc(N2CCN(c3ccc(OCC4COC(Cn5cncn5)(c5ccc(Cl)cc5Cl)O4)cc3)CC2)cc1 (stereo not drawn)  IC50 (CYP3A4 human; inhibitor; with: midazolam): 0.00044 µM
